Experimental data pooled from the literature.
Lines come from different studies, so protocols differ. ± gives the spread as reported.
Tumor necrosis factor receptor superfamily member 9/Nectin-4: Tumor necrosis factor receptor superfamily member 9/Nectin-4 (Homo sapiens, UniProt Q07011+Q96NY8)
Sequence of UniProt Q07011 (whole entry, looked up): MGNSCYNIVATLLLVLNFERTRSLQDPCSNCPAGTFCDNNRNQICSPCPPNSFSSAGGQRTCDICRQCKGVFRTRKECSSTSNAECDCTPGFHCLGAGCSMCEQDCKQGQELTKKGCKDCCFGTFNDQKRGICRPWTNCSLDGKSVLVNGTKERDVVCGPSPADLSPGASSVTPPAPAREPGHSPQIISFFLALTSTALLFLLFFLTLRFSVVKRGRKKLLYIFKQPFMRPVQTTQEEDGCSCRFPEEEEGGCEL
Sequence of UniProt Q96NY8 (whole entry, looked up): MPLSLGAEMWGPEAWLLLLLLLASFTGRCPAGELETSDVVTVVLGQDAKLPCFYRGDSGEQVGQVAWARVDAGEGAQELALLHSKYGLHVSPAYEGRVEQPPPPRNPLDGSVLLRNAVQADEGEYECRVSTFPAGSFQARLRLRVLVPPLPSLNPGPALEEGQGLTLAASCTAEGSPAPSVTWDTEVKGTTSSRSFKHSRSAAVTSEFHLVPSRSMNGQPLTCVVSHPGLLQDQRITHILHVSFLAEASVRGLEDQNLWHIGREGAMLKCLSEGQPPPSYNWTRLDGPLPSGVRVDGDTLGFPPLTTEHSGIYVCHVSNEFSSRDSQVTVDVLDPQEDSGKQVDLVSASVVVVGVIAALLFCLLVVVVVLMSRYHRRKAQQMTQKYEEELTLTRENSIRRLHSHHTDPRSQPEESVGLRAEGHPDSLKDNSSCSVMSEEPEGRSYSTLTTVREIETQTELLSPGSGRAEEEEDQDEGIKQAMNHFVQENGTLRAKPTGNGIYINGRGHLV
H2-D1 17: H-2 class I histocompatibility antigen, D-B alpha chain, 17 (H2-D1, Mus musculus, UniProt P01899)
Sequence of UniProt O60603 (whole entry, looked up): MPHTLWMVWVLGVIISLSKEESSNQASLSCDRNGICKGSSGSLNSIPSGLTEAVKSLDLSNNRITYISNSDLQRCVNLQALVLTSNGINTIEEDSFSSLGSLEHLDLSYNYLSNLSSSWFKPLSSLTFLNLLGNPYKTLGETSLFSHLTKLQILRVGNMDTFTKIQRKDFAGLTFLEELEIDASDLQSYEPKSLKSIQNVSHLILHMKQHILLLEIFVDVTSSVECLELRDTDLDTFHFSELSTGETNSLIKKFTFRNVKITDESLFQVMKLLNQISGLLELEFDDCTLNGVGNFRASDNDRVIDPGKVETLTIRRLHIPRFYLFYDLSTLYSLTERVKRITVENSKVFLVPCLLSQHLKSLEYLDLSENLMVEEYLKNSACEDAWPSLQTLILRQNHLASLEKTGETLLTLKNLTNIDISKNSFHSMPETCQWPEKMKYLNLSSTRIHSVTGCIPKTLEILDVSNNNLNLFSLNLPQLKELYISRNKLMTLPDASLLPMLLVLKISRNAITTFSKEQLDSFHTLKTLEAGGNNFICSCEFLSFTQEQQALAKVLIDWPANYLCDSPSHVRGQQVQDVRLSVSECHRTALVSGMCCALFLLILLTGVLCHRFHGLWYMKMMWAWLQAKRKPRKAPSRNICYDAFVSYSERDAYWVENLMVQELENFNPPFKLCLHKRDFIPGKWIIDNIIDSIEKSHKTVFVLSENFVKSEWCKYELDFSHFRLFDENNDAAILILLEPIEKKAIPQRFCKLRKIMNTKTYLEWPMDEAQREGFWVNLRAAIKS
Sequence of UniProt P07700 (whole entry, unmodified, looked up): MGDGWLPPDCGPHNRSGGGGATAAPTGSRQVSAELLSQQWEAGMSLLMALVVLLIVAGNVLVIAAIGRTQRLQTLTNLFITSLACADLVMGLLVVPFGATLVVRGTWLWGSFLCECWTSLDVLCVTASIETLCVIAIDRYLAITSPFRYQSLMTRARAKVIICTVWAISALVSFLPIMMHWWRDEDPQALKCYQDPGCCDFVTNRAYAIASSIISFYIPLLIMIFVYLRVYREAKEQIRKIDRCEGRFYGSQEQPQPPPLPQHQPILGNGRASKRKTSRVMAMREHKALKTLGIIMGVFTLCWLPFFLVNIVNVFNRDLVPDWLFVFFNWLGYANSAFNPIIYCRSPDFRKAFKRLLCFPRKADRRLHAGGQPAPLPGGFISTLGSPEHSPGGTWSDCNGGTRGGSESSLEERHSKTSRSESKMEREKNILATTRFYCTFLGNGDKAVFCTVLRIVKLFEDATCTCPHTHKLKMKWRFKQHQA
Sequence of UniProt P07026 (whole entry, looked up): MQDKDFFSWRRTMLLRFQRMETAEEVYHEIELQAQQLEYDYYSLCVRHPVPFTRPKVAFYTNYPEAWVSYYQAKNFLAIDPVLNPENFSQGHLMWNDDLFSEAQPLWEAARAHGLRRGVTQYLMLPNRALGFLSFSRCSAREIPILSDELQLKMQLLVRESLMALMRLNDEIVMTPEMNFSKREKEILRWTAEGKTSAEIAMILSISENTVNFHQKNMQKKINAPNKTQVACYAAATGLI
Sequence of UniProt Q9NX63 (whole entry, looked up): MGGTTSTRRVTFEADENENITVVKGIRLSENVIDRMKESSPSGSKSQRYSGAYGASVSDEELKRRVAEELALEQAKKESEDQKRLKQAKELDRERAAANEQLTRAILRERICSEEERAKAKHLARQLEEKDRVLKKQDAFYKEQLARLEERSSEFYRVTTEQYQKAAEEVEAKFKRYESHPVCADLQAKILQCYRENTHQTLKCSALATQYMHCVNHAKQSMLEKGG

With `COc1cc(Nc2ncc(F)c(Nc3ccc4c(n3)NC(=O)C(C)(C)O4)n2)cc(OC)c1OC` the IC50 was greater than 10000 nM (Phosphatidylinositol 3,4,5-trisphosphate 3-phosphatase and dual-specificity protein phosphatase PTEN (PTEN, Homo sapiens, UniProt P60484); MMAC1).
`CCCC[C@@H]1NC(=O)[C@H](Cc2ccc(O)cc2)NC(=O)[C@@H]2CCCN2C(=O)[C@H](CC(=O)O)NC(=O)[C@H](C)NC(=O)[C@H](Cc2ccccc2)NC(=O)[C@@H]2CSCCC(=O)N3CN(CN(C3)C(=O)CCSC[C@@H](C(=O)N[C@@H](CNC(=O)CCc3cn(CCOCCOCCOCCN(CCOCCOCCOCCC(=O)N[C@H]4CSCCC(=O)N5CN6CN(C5)C(=O)CCSC[C@H](NC(=O)[C@@H](CC(=O)O)NC(=O)[C@H](Cc5cccc7ccccc57)NC(=O)[C@@H]5CCCN5C4=O)C(=O)N[C@@H](CCSC)C(=O)N[C@@H](CCCCNC(=N)N)C(=O)N[C@@H](CC(=O)O)C(=O)N[C@@H](Cc4c[nH]c5ccccc45)C(=O)N[C@@H](CO)C(=O)N[C@@H]([C@@H](C)O)C(=O)N4CCC[C@H]4C(=O)N4C[C@H](O)C[C@H]4C(=O)N[C@@H](Cc4c[nH]c5ccccc45)C(=O)N[C@H](C(N)=O)CSCCC6=O)CCOCCOCCOCCn4cc(CCC(=O)NC[C@H](NC(=O)[C@@H]5CSCCC(=O)N6CN7CN(C6)C(=O)CCSC[C@H](NC(=O)[C@H](Cc6ccc(O)cc6)NC(=O)[C@@H]6CCCN6C(=O)[C@@H](C)NC(=O)[C@H](CCC(=O)O)NC(=O)[C@@H]6CCCN6C(=O)[C@H](CC(C)(C)C)NC(=O)[C@@H](NC(C)=O)CSCCC7=O)C(=O)N[C@@H](Cc6ccccc6)C(=O)N[C@@H](C)C(=O)N[C@@H](CC(=O)O)C(=O)N6CCC[C@H]6C(=O)N[C@@H](Cc6ccc(O)cc6)C(=O)N[C@@H](CCCC)C(=O)N5)C(N)=O)nn4)nn3)C(N)=O)NC1=O)C(=O)CCSC[C@H](NC(C)=O)C(=O)N[C@@H](CC(C)(C)C)C(=O)N1CCC[C@H]1C(=O)N[C@@H](CCC(=O)O)C(=O)N[C@H](C)C(=O)N1CCC[C@H]1C(=O)N[C@@H](Cc1ccc(O)cc1)C(=O)N2` gave an EC50 of 0.2 nM (Tumor necrosis factor receptor superfamily member 9/Nectin-4; reporter gene, agonist; HT-1376 coculture with reporter cells).
`O=C(Cc1cccc([N+](=O)[O-])c1)NC1CCCC1` has an EC50 of 2.07 nM (Regulatory protein SdiA (sdiA, Escherichia coli, UniProt P07026)).
With `CC(CCc1ccc(O)cc1)NCCc1ccc(O)c(O)c1` (stereo not shown) the EC50 was 263 nM (ADRB1 (Meleagris gallopavo, UniProt P07700, C116L/C358A/del244-271/del277-278); CRE-SPAP reporter gene, agonist; CHO cells).
`CC(C)[C@H](NC(=O)[C@H](CO)NC(=O)[C@@H](N)CO)C(=O)N[C@@H](Cc1c[nH]c2ccccc12)C(=O)N[C@@H](CC(N)=O)C(=O)N[C@@H](C)C(=O)N[C@H](C(=O)N[C@H](C(=O)N[C@@H](C)C(=O)N[C@@H](C)C(=O)O)[C@@H](C)O)[C@@H](C)O` gave an EC50 of 40000 nM (H2-D1 17; H-2D stabilisation, flow cytometry; RMA-S TAP-deficient; overnight).
`C[C@H]1CN(c2n[nH]c3nc(N[C@H]4CC[C@H](NS(=O)(=O)CCC(F)(F)F)CC4)ncc23)CCO1` has a remaining binding of 1.02 (MICOS complex subunit MIC19 (Homo sapiens, UniProt Q9NX63); Kinobeads competition, item: CHCHD3; 0.16 µM, unit not given; relative to: vehicle).
Under “grade 3 hand-foot syndrome”, `COc1cc2c(Oc3ccc4[nH]c(C)cc4c3F)ccnc2cc1OCC1(N)CC1` is recorded as 0% (paediatric recurrent refractory sarcoma; 8 mg).
With `CCCC[C@@H]1NC(=O)[C@H](Cc2ccc(O)cc2)NC(=O)[C@@H]2CCCN2C(=O)[C@H](CC(=O)O)NC(=O)[C@H](C)NC(=O)[C@H](Cc2ccccc2)NC(=O)[C@@H]2CSCCC(=O)N3CN(CN(C3)C(=O)CCSC[C@H](NC(C)=O)C(=O)N[C@@H](CC(C)(C)C)C(=O)N[C@@H](CCC(=O)O)C(=O)N[C@@H](CCC(=O)O)C(=O)N[C@H](CCCCNC(=O)CCc3cn(CCOCCOCCOCCOCCOCCC(=O)N[C@H]4CSCCC(=O)N5CN6CN(C5)C(=O)CCSC[C@H](NC(=O)[C@@H](CC(=O)O)NC(=O)[C@H](Cc5cccc7ccccc57)NC(=O)[C@@H]5CCCN5C4=O)C(=O)N[C@@H](CCSC)C(=O)N[C@@H](CCCCNC(=N)N)C(=O)N[C@@H](CC(=O)O)C(=O)N[C@@H](Cc4c[nH]c5ccccc45)C(=O)N[C@@H](CO)C(=O)N[C@@H]([C@@H](C)O)C(=O)N4CCC[C@H]4C(=O)N4C[C@H](O)C[C@H]4C(=O)N[C@@H](Cc4c[nH]c5ccccc45)C(=O)N[C@H](C(N)=O)CSCCC6=O)nn3)C(=O)N3CCC[C@H]3C(=O)N[C@@H](Cc3ccc(O)cc3)C(=O)N2)C(=O)CCSC[C@@H](C(N)=O)NC1=O` the EC50 was 0.86 nM (Tumor necrosis factor receptor superfamily member 9/Nectin-4; reporter gene, agonist; HT-1376 coculture with reporter cells).
The tissue uptake of `CC[C@H](C)[C@H](NC(=O)[C@H](Cc1ccccc1)NC(=O)[C@H](CCC(=O)O)NC(=O)[C@H](CCCNC(=N)N)NC(=O)[C@H](C)NC(=O)[C@H](C)NC(=O)[C@H](CCC(N)=O)NC(=O)[C@H](CCC(=O)O)NC(=O)[C@H](CCC(=O)O)NC(=O)[C@H](CC(C)C)NC(=O)[C@H](Cc1ccc(O)cc1)NC(=O)[C@H](CO)NC(=O)[C@H](CO)NC(=O)[C@@H](NC(=O)[C@H](CC(=O)O)NC(=O)[C@H](CO)NC(=O)[C@@H](NC(=O)[C@H](Cc1ccccc1)NC(=O)[C@@H](NC(=O)CNC(=O)[C@H](CCC(=O)O)NC(=O)[C@H](C)NC(=O)CCc1c[nH]cn1)[C@@H](C)O)[C@@H](C)O)C(C)C)C(=O)N[C@@H](C)C(=O)N[C@@H](Cc1c[nH]c2ccccc12)C(=O)N[C@@H](CC(C)C)C(=O)N[C@H](C(=O)N[C@@H](CCCNC(=N)N)C(=O)NCC(=O)N[C@@H](CCCNC(=N)N)C(=O)N[C@@H](CCCCNC(=O)COCCOCCNC(=O)COCCOCCNC(=O)CC[C@H](NC(=O)CCCCCCCCCCCCCCCCC(=O)O)C(=O)O)C(=O)NCC(=O)NCC(=O)N[C@@H](CO)C(=O)N[C@@H](CCCCNc1c(NCCCCCN(O)C(=O)CCC(=O)NCCCCCN(O)C(=O)CCC(=O)NCCCCCN(O)C(C)=O)c(=O)c1=O)C(=O)O)C(C)C` [zirconium-89 labelled] is reported as 0.18 %ID/g (rat, pancreas; sc, 3 nmol/kg, 72 h, ex vivo).
`CCCCCCCCCCCCCCCC(=O)OCC(CSCC(N)C(=O)NC(CO)C(=O)NCCCN(C)C)OC(=O)CCCCCCCCCCCCCCC` (stereo not shown) has an EC50 of 0.46 ± 0.04 nM (Toll-like receptor 2 (TLR2, Homo sapiens, UniProt O60603); reporter gene, agonist; HEK-Blue hTLR2 cells).
`CCCC[C@@H]1NC(=O)[C@H](Cc2ccc(O)cc2)NC(=O)[C@@H]2CCCN2C(=O)[C@H](CC(=O)O)NC(=O)[C@H](C)NC(=O)[C@H](Cc2ccccc2)NC(=O)[C@@H]2CSCCC(=O)N3CN(CN(C3)C(=O)CCSC[C@@H](C(=O)N[C@@H](C)C(N)=O)NC1=O)C(=O)CCSC[C@H](NC(C)=O)C(=O)N[C@@H](CC(C)(C)C)C(=O)N1CCC[C@H]1C(=O)N[C@@H](CCC(=O)O)C(=O)N[C@H](CCCCNC(=O)CCc1cn(CCOCCOCCOCCN(CCOCCOCCOCCn3cc(CCC(=O)NCCCC[C@H]4NC(=O)[C@H](CCC(=O)O)NC(=O)[C@@H]5CCCN5C(=O)[C@H](CC(C)(C)C)NC(=O)[C@@H](NC(C)=O)CSCCC(=O)N5CN6CN(C5)C(=O)CCSC[C@H](NC(=O)[C@H](Cc5ccc(O)cc5)NC(=O)[C@@H]5CCCN5C4=O)C(=O)N[C@@H](Cc4ccccc4)C(=O)N[C@@H](C)C(=O)N[C@@H](CC(=O)O)C(=O)N4CCC[C@H]4C(=O)N[C@@H](Cc4ccc(O)cc4)C(=O)N[C@@H](CCCC)C(=O)N[C@H](C(=O)N[C@@H](C)C(N)=O)CSCCC6=O)nn3)CCOCCOCCOCC(=O)NCCCNC(=O)Cn3cc(CCC(=O)NCCCNC(=O)COCCOCCOCCN(CCOCCOCCOCCn4cc(CCC(=O)NCCC(=O)N[C@H]5CSCCC(=O)N6CN7CN(C6)C(=O)CCSC[C@H](NC(=O)[C@@H](CC(=O)O)NC(=O)[C@H](Cc6cccc8ccccc68)NC(=O)[C@@H]6CCCN6C5=O)C(=O)N[C@@H](CCSC)C(=O)N[C@@H](CCCCNC(=N)N)C(=O)N[C@@H](CC(=O)O)C(=O)N[C@@H](Cc5c[nH]c6ccccc56)C(=O)N[C@@H](CO)C(=O)N[C@@H]([C@@H](C)O)C(=O)N5CCC[C@H]5C(=O)N5C[C@H](O)C[C@H]5C(=O)N[C@@H](Cc5c[nH]c6ccccc56)C(=O)N[C@H](C(N)=O)CSCCC7=O)nn4)CCOCCOCCOCCn4cc(CCC(=O)NCCC(=O)N[C@H]5CSCCC(=O)N6CN7CN(C6)C(=O)CCSC[C@H](NC(=O)[C@@H](CC(=O)O)NC(=O)[C@H](Cc6cccc8ccccc68)NC(=O)[C@@H]6CCCN6C5=O)C(=O)N[C@@H](CCSC)C(=O)N[C@@H](CCCCNC(=N)N)C(=O)N[C@@H](CC(=O)O)C(=O)N[C@@H](Cc5c[nH]c6ccccc56)C(=O)N[C@@H](CO)C(=O)N[C@@H]([C@@H](C)O)C(=O)N5CCC[C@H]5C(=O)N5C[C@H](O)C[C@H]5C(=O)N[C@@H](Cc5c[nH]c6ccccc56)C(=O)N[C@H](C(N)=O)CSCCC7=O)nn4)nn3)nn1)C(=O)N1CCC[C@H]1C(=O)N[C@@H](Cc1ccc(O)cc1)C(=O)N2` has an EC50 of 0.052 nM (Tumor necrosis factor receptor superfamily member 9/Nectin-4; reporter gene, agonist; HT-1376 reporter coculture).
`CC[C@H](C)[C@H](NC(=O)[C@H](C)NC(=O)[C@@H](NC(=O)[C@@H](NC(=O)CNC(=O)[C@H](CC(N)=O)NC(=O)[C@H](Cc1c[nH]c2ccccc12)NC(=O)[C@@H](NC(=O)[C@H](CO)NC(=O)[C@@H](N)CO)C(C)C)[C@@H](C)O)[C@@H](C)O)C(=O)O` has an EC50 of 2000 nM (H2-D1 17; H-2D stabilisation, flow cytometry; RMA-S TAP-deficient; overnight).
With `Cc1cc(SCc2sc(-c3ccc(C(F)(F)F)c(F)c3)nc2C)ccc1OCC(=O)O` the EC50 was 7 nM (Peroxisome proliferator-activated receptor delta (Rattus norvegicus, UniProt Q62879); reporter gene, agonist, luciferase reporter; rat; serum-free).
